{"data": "Measurements of several laboratories", "note": "Lines come from different studies, so protocols differ."}
{"SMILES": "O=C(c1ccc(F)cc1)C1CCN(CCn2c(=O)[nH]c3ccccc3c2=O)CC1", "test": "metabolic stability", "test system": "rat, liver microsomes", "setting": "1 h", "quantity": "compound remaining", "result": "10.2%"}
{"SMILES": "CCn1cc(C2CC2)c2c(Cc3cnc(C(F)(F)F)c(OC)c3)n(C)nc2c1=O", "test": "nephelometry", "test system": "aqueous buffer", "setting": "30 min, pH 6.5", "quantity": "kinetic solubility", "result": "60 to 120 µM"}
{"SMILES": "COc1ccc([C@@H](O)c2cc(-c3ncnc4cc(N5CCOCC5)ccc34)c(F)cc2Cl)nn1", "test system": "human, plasma", "setting": "oral, 100 mg, single dose, patients", "quantity": "Tmax", "result": "1.06 h"}
{"SMILES": "COc1cccc(-c2n[nH]c(SCc3ccccn3)n2)c1OC", "test system": "female Sprague-Dawley rat, plasma", "setting": "oral, 100 mg/kg, 15 min, single dose", "quantity": "concentration", "result": "94800 ng/mL"}
{"SMILES": "Cc1noc(C)c1Cn1cc(N2C(=O)CN(Cc3cccc(O)c3)C2=O)cn1", "test system": "male Sprague-Dawley rat, plasma", "setting": "oral, 100 mg/kg, 8 h", "quantity": "concentration", "result": "15.2 ng/mL"}
{"SMILES": "CCn1cc(C)c2c([C@H](O)c3ccc(C(F)(F)F)nc3)n(C)nc2c1=O", "test": "nephelometry", "test system": "aqueous buffer", "setting": "30 min, pH 6.5", "quantity": "kinetic solubility", "result": "160 to 320 µM"}
{"SMILES": "Cc1ccc2c(c1)nc(CCc1cccc3cccnc13)n2-c1ccccc1", "test": "metabolic stability", "test system": "rat, liver microsomes", "setting": "1.5 µM, 10 min", "quantity": "compound remaining", "result": "0.19%"}
{"SMILES": "COc1ccc2c(=O)n(C)c(-c3ccccc3)nc2c1", "test system": "male Sprague-Dawley rat, spleen", "setting": "oral, 30 mg/kg, 30 min", "quantity": "concentration", "result": "12.1 ng/mL"}
{"SMILES": "CCOC(=O)[C@@]12C[C@@H]1[C@@H](n1ccc3c(NC)nc(C#Cc4ccc(Cl)s4)nc31)[C@H](O)[C@@H]2O", "test system": "male Sprague-Dawley rat, plasma", "setting": "intravenous, 0.5 mg/kg, 2 h", "quantity": "concentration", "result": "5.76 ng/mL"}
{"SMILES": "CCn1ccc2c([C@](O)(c3cnc(C(F)(F)F)c(Cl)c3)C3CC3)n(C)nc2c1=O", "test": "nephelometry", "test system": "aqueous buffer", "setting": "30 min, pH 6.5", "quantity": "kinetic solubility", "result": "40 to 80 µM"}
{"SMILES": "O=C1CC[C@H](N2Cc3cc(N4CCN(CC5CCN(c6ccc([C@@H]7c8ccc(O)cc8CC[C@@H]7c7ccccc7)cc6)CC5)CC4)ccc3C2=O)C(=O)N1", "test system": "male Sprague-Dawley rat, plasma", "setting": "intravenous, 5 mg/kg, fed", "quantity": "Vd", "result": "2.83 L/kg"}
{"SMILES": "CCn1cc(C2CC2)c2c([C@H](O)c3ccc(C(F)(F)F)nc3)n(C)nc2c1=O", "test": "nephelometry", "test system": "aqueous buffer", "setting": "30 min, pH 6.5", "quantity": "kinetic solubility", "result": "160 to 320 µM"}
{"SMILES": "Cc1c(C(=O)O)ccc2c3n(nc12)[C@@H]1[C@H](C3)N(CC2CC2)[C@@]2(C(=O)Nc3cc(Cl)ccc32)[C@H]1c1cccc(Cl)c1F", "test system": "female minipig, plasma", "setting": "oral, 2 mg/kg", "quantity": "Tmax", "result": "2.3 h"}
